Published values pooled from the literature.
Numbered parts are unrelated; each lists some results of a single study. Changes are numbered by the printed parent chain.

Set 1
Target: HLA class I histocompatibility antigen, A alpha chain, allele A*25:01 (Homo sapiens, UniProt P04439)
Observed: peptide-MHC binding
Form: peptide
Tested at: concentration not given
Under binding, `NMDKAVKLY` is recorded as “inactive”.
Under binding, `RIYDPLWFQ` is recorded as “inactive”.
`CLSDEINHV` — result for binding: “inactive”.
`SGLPGIFIV` — result for binding: “inactive”.
`RNNDPTLPY`: binding “inactive”.

Set 2
Target: CCNE1, cyclin fold, Cln2 fusion (human)
Method: yeast growth competition, sequencing
Medium: yeast
Notes: strong parent motif
Baseline: not given
Direction: higher = stronger binding
Starting sequence: viral docking peptide; TSVRRALFTGGSD
For `TSVRRSLFTGGSD [A6S]`, “normalised enrichment score” read 3.4.
Under “normalised enrichment score”, `TSVRRALTTGGSD [F8T]` is recorded as -0.051.
For `TSFRRALFTGGSD [V3F]`, “normalised enrichment score” read 2.94.
Under “normalised enrichment score”, `TSSRRALFTGGSD [V3S]` is recorded as 0.467.
`TSVRRILFTGGSD [A6I]`: “normalised enrichment score” 6.7.
`TSTRRALFTGGSD [V3T]`: “normalised enrichment score” 1.82.
`TSVRRASFTGGSD [L7S]` — result for “normalised enrichment score”: -0.121.
Under “normalised enrichment score”, `TSVRRALMTGGSD [F8M]` is recorded as 0.406.
`TSVRLALFTGGSD [R5L]` — result for “normalised enrichment score”: -0.108.
`TSVRGALFTGGSD [R5G]`: “normalised enrichment score” -0.00131.
`TSVRRAKFTGGSD [L7K]` — result for “normalised enrichment score”: 0.111.
Under “normalised enrichment score”, `TSVRRALFTMGSD [G10M]` is recorded as 4.81.
`TSVRRALFTHGSD [G10H]`: “normalised enrichment score” 5.22.
For `TSVERALFTGGSD [R4E]`, “normalised enrichment score” read 0.3.
For `TPVRRALFTGGSD [S2P]`, “normalised enrichment score” read 4.64.
`TSNRRALFTGGSD [V3N]`: “normalised enrichment score” -0.295.
`TSVRRALFEGGSD [T9E]` — result for “normalised enrichment score”: 4.39.
Under “normalised enrichment score”, `TSVCRALFTGGSD [R4C]` is recorded as 5.35.

Set 3
Target: UBE2D4 UBC core domain (UniProt Q9Y2X8)
Method: yeast two-hybrid
Medium: yeast
Notes: mostly zero background
Baseline: not given
Direction: higher = stronger interaction
B1: MEX3B RING domain (UniProt Q6ZN04); chain SGLRRKGSRDCSVCFESEVIAALVPCGHNLFCMECANRICEKSEPECPVCHTAVTQAIRIF
B2: RNF152 RING domain (UniProt Q8N8N0); chain ETLSQDSLLECQICFNYYSPRRRPKLLDCKHTCCSVCLQQMRTSQKDVRCPWCRGVTKLPPGFS
B3: ANAPC11 RING domain (UniProt Q9NYG5); chain GICRMAFNGCCPDCKVPGDDCPLVWGQCSHCFHMHCILKWLHAQQVQQHCPMCRQEWKFKE
Residues (chain): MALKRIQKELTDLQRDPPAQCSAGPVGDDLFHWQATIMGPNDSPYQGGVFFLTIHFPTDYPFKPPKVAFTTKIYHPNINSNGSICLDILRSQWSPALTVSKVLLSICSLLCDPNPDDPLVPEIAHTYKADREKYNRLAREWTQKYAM
For `B1 (MEX3B RING domain)`, “lacZ reporter activity” read 0.
For `QVQSRTKIEECVVCSDKKAAVLFQPCGHMCACENCANLMKKCVQCRAVVERRVPFI (MIB1 RING domain (UniProt Q86YT6))`, “lacZ reporter activity” read 0.
`B2 (RNF152 RING domain)` — result for “lacZ reporter activity”: 0.
Under “lacZ reporter activity”, `B3 (ANAPC11 RING domain)` is recorded as 0.

Set 4
Target: Interferon regulatory factor 5, full length, phosphomimetic (IRF5, Homo sapiens, UniProt Q13568-2, residues 1-514, K96S/S451D/S453D/S456D/S462D)
Method: protein-binding microarray
Form: double-stranded DNA, one strand shown
Medium: in vitro
Tested at: 250 nM
Notes: 60-bp whole probe
Together with: salmon DNA 0.4 mg/ml
Baseline: random background probes
Direction: higher = stronger binding
All sequences stand within: GCCTAGCAC … GTCTTGATTCGCTTGACGCTGCTG
With `TTATGACTGGGTATCGGTTAGTGCTAG` the log fluorescence was 4.44 z-score.
For `TTAGAACTGGGGTTTCTATTAGTGCTA`, the log fluorescence was 0.736 z-score.
`TTATGTCTCGGTCTCGGTTAGTGCTAG` has a log fluorescence of 1.52 z-score.
`TTTTTTTTTTTTTTTTGGAAGTGCTAG` has a log fluorescence of 1.26 z-score.
The log fluorescence of `GTGAGTTTGACATCTTCATCAGTGCTA` is reported as 0.138 z-score.
With `TTAGAACTGGGGTTTCGATAAGTGCTA` the log fluorescence was 4.51 z-score.
For `GACGGTGTCCTTTCCCTGACGTGCTAG`, the log fluorescence was -0.118 z-score.
The log fluorescence of `TTAGGTATCGCGTATCGGTTAGTGCTA` is reported as 3.66 z-score.

Further values, each from its own experiment
Target: SMN1, full length (human, UniProt Q16637, residues 1-294)
Chain of UniProt Q16637 (whole entry, looked up): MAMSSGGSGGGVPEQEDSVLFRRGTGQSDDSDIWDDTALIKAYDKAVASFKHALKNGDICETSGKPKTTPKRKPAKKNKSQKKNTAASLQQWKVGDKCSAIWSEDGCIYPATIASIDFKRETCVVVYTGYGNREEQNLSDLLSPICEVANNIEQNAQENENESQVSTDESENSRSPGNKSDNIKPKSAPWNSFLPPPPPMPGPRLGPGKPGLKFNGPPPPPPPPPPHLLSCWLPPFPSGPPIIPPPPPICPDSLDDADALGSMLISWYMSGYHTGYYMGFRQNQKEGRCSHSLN
Method: nitrocellulose filter binding
Form: RNA
Medium: in vitro
Tested at: 100 nM
Notes: whole RNA, constant flanks, single concentration, ends assumed
Baseline: round 9 selected pool
Direction: higher = stronger binding
`GGGCUCACCACGCACGUGUGUGGUCUGUGGGAGGAUGGUGCCUCACCACGGCAAGCU`: “relative RNA binding” 17 % of pool.
For `GGGCUCACCACGCACGUGCGUUCAUCUUGUCUCGUACUGGCCUCACCACGGCAAGCU`, “relative RNA binding” read 71 % of pool.

Repeated from above (set 1):
Under binding, `NMDKAVKLY` is recorded as “inactive”.
Under binding, `RIYDPLWFQ` is recorded as “inactive”.
`CLSDEINHV` — result for binding: “inactive”.
`SGLPGIFIV` — result for binding: “inactive”.
